{"data": "Published values of several laboratories", "Cgas": "Cyclic GMP-AMP synthase (Cgas, Mus musculus, UniProt Q8C6L5)", "note": "Compare with care: the assays were run in different laboratories. Numbers after ± are the reported error.", "sequence of UniProt Q8C6L5 (whole entry, looked up)": "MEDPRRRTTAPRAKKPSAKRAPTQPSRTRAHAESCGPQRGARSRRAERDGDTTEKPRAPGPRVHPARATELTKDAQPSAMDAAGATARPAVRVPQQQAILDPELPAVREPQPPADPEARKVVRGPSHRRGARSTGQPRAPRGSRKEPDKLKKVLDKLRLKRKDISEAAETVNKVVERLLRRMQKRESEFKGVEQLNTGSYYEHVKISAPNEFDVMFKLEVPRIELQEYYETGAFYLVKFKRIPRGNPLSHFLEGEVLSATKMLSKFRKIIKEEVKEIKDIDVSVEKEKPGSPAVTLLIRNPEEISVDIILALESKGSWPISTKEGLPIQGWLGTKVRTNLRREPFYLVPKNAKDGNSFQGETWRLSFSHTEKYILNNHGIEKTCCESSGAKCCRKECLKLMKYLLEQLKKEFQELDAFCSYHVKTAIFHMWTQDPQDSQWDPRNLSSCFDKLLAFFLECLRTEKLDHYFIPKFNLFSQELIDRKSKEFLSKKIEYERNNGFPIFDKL", "sequence of UniProt P35372 (whole entry, looked up)": "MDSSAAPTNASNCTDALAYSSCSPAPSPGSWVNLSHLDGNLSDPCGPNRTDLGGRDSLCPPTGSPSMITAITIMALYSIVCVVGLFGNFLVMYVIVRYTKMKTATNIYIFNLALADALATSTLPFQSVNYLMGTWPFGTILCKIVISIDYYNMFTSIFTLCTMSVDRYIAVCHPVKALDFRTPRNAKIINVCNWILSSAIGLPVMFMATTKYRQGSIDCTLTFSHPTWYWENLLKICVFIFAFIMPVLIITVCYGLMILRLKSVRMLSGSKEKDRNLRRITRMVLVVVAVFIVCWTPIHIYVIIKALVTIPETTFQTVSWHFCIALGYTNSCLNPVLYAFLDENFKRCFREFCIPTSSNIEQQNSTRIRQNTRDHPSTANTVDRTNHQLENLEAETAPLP", "sequence of UniProt P28221 (whole entry, looked up)": "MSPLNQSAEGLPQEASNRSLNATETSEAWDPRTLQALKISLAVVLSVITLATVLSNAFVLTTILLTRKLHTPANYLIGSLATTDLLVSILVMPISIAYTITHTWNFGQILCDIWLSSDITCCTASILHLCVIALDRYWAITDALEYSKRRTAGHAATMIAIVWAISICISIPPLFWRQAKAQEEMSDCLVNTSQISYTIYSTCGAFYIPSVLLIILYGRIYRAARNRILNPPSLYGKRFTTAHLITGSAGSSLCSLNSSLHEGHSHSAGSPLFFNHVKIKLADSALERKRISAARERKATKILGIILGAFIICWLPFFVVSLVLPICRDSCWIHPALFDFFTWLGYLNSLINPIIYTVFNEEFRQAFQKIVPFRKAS", "sequence of UniProt Q9Y5N1 (whole entry, looked up)": "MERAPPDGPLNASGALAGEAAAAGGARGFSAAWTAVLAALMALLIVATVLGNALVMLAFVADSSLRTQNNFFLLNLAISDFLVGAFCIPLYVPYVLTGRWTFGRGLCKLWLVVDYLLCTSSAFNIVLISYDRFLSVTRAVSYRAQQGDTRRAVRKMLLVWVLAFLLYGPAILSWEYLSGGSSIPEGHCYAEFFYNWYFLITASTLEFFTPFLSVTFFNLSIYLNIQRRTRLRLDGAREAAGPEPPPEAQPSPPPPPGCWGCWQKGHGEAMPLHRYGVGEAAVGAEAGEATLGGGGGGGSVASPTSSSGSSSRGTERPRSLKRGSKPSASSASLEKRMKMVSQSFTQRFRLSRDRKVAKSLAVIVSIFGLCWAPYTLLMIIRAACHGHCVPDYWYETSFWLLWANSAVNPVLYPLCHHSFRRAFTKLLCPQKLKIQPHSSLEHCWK", "sequence of UniProt Q99705 (whole entry, looked up)": "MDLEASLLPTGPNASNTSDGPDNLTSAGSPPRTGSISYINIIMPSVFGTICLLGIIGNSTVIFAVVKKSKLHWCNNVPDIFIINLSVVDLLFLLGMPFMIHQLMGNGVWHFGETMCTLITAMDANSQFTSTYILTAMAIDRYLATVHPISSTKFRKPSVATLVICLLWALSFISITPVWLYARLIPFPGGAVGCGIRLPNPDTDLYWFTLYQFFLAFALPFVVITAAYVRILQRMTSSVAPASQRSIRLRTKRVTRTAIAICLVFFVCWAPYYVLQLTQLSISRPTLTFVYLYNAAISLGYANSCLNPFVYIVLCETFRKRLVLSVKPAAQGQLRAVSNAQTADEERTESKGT", "sequence of UniProt Q13936 (whole entry, looked up)": "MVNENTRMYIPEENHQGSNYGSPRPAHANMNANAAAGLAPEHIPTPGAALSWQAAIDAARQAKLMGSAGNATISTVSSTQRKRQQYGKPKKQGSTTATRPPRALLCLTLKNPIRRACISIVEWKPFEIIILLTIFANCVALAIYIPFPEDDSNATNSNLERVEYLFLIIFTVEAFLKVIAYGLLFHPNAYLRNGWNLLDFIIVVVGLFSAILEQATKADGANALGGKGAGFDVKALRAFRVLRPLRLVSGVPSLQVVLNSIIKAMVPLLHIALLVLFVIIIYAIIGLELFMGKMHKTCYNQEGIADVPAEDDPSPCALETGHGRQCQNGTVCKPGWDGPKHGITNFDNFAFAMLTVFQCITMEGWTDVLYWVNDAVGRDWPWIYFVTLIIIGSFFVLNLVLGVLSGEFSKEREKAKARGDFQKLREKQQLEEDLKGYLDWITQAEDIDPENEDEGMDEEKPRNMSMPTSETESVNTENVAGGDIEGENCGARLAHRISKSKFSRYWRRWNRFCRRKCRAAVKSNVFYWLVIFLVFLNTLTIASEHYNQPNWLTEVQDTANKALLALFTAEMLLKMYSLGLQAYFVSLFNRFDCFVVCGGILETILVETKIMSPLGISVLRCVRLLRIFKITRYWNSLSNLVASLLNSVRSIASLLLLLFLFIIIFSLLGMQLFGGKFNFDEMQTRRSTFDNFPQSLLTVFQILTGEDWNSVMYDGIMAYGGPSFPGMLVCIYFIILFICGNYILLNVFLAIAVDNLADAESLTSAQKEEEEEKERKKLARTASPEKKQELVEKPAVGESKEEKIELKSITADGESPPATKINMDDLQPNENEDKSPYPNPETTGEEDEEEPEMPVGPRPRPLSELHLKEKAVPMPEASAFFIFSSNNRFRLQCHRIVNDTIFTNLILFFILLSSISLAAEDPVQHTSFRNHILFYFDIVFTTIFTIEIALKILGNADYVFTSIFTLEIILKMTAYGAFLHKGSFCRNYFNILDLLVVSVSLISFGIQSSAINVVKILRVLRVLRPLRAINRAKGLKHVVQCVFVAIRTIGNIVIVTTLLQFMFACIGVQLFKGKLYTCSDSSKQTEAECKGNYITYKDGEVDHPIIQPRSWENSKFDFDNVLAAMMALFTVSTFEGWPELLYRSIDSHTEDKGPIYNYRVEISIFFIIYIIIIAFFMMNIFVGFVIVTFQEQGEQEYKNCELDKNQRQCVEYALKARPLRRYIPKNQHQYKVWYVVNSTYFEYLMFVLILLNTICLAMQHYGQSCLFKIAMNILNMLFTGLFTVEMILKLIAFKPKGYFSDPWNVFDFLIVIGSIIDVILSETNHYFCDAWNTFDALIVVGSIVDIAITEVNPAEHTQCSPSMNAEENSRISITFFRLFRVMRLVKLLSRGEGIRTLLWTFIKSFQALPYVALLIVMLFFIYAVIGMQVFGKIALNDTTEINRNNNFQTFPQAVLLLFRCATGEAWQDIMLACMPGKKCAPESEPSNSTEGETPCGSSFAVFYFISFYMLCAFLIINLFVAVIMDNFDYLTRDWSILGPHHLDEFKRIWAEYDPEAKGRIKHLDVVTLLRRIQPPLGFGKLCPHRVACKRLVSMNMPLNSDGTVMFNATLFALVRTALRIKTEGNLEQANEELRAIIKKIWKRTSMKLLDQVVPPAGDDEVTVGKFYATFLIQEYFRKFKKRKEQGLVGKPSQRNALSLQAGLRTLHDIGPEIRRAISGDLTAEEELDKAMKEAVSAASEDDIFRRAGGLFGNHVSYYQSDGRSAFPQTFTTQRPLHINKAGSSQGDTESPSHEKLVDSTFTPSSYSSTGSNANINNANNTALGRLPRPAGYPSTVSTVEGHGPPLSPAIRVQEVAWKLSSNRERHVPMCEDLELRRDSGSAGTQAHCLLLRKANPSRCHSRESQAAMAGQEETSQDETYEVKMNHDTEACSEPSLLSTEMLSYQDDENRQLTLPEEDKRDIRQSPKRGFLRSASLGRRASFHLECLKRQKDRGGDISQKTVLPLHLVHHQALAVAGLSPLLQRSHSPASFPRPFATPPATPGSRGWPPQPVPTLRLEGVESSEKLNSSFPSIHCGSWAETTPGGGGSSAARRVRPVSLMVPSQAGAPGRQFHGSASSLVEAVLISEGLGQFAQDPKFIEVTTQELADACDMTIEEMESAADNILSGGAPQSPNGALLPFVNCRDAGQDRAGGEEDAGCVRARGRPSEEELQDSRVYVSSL"}
{"Structure (SMILES)": "O=C(O)C[C@H](O)[C@H](O)CO", "assay": "binding, MIDAS equilibrium dialysis LC-MS", "system": "A2AR-BRIL thermostabilized", "setting": "concentration not given", "how to read": "baseline: no-protein control", "endpoint": "log2 fold change", "value": -0.0711}
{"Structure (SMILES)": "COc1ccc2c(c1)CN(CCCN1CCN(c3ccccc3OC)CC1)C2=O", "tested on": "HTR1D (Homo sapiens, UniProt P28221)", "assay": "radioligand binding", "setting": "concentration not given, with: [3H]5-CT", "endpoint": "inhibition", "value": "79%"}
{"Structure (SMILES)": "Nc1nc2c(ncn2[C@H]2C[C@H](O)[C@@H](COP(=O)(O)OP(=O)(O)O)O2)c(=O)[nH]1", "assay": "binding, MIDAS equilibrium dialysis LC-MS", "system": "A2AR-BRIL thermostabilized", "setting": "concentration not given", "how to read": "baseline: no-protein control", "endpoint": "log2 fold change", "value": -0.494}
{"Structure (SMILES)": "CCCC[C@H](NC(=O)[C@H](C)c1c(C)[nH]c2ccc(O)cc12)c1ncc(-c2cc3ccccc3nc2OC)[nH]1", "tested on": "MCHR1 (Homo sapiens, UniProt Q99705)", "setting": "10 µM", "endpoint": "inhibition", "value": "51%"}
{"Structure (SMILES)": "CC1=NN(c2ccc(C)cc2)C(=O)C1=NNc1ccc(S(N)(=O)=O)cc1", "tested on": "bovine α-glucosidase", "assay": "enzyme activity, inhibitor, glucose oxidase", "setting": "10 µg/mL, with: maltose", "endpoint": "inhibition", "value": "27.39 ± 0.000879%"}
{"Structure (SMILES)": "Cc1nn(-c2nc3c(F)cc(F)cc3s2)c(O)c1C(c1ccc(C(F)(F)F)cc1)c1c(C)nn(-c2nc3c(F)cc(F)cc3s2)c1O", "tested on": "Cgas", "assay": "enzyme activity, inhibitor, pyrophosphatase-coupled", "setting": "100 µM, 1.5 h, mouse enzyme", "endpoint": "inhibition", "value": "98.9%"}
{"Structure (SMILES)": "NC/C(=C\\F)COc1cccc(Cn2c(=S)[nH]c(=O)c3[nH]cnc32)c1", "tested on": "CACNA1C (Homo sapiens, UniProt Q13936)", "assay": "peak ion current, inhibitor, automated patch clamp", "setting": "30 µM, pulse 10", "endpoint": "inhibition", "value": "14.1%"}
{"Structure (SMILES)": "COc1cc(C2=CCCc3c2ccc(OC)c3OC(C)c2ccc([N+](=O)[O-])s2)cc(OC)c1OC (centres unmarked)", "tested on": "tubulin", "assay": "colchicine binding", "setting": "5 µM, with: 5.0 µM [3H]colchicine", "endpoint": "inhibition", "value": "9.4 ± 2%"}
{"Structure (SMILES)": "CC1=NNC(=O)C1=NNc1ccc(S(N)(=O)=O)cc1", "tested on": "bovine α-glucosidase", "assay": "enzyme activity, inhibitor, glucose oxidase", "setting": "500 µg/mL, with: maltose", "endpoint": "inhibition", "value": "39%"}
{"Structure (SMILES)": "O=C(NO)c1ccc(CN2CCCCc3ccccc32)c(F)c1", "tested on": "OPRM1 (Homo sapiens, UniProt P35372)", "assay": "radioligand binding, PDSP radioligand binding", "setting": "10 µM", "endpoint": "inhibition", "value": "4.75%"}
{"Structure (SMILES)": "CC1=NN(c2ccccn2)C(=O)C1=NNc1ccc(S(N)(=O)=O)cc1", "tested on": "bovine α-glucosidase", "assay": "enzyme activity, inhibitor, glucose oxidase", "setting": "100 µg/mL, with: maltose", "endpoint": "inhibition", "value": "41.6%"}
{"Structure (SMILES)": "Cc1nn(-c2nc3ccc(Cl)c(Cl)c3[nH]2)c(O)c1C1OC(=O)c2ccccc21 (centres unmarked)", "tested on": "Cgas", "assay": "enzyme activity, inhibitor, pyrophosphatase-coupled", "setting": "2 µM, 1.5 h, mouse enzyme", "endpoint": "inhibition", "value": "99.5%"}
{"Structure (SMILES)": "CC1=NN(c2ccc(Cl)cc2)C(=O)C1=NNc1ccc(S(N)(=O)=O)cc1", "tested on": "bovine α-glucosidase", "assay": "enzyme activity, inhibitor, glucose oxidase", "setting": "100 µg/mL, with: maltose", "endpoint": "inhibition", "value": "39.3%"}
{"Structure (SMILES)": "OCCCN1CC[C@@H]2C[C@H]1c1cc(-c3ccc(C(F)(F)F)cc3)ccc12", "tested on": "HRH3 (Homo sapiens, UniProt Q9Y5N1)", "assay": "radioligand binding, PDSP competition binding", "setting": "10 µM", "endpoint": "inhibition", "value": "< 50%"}
{"note": "Repeated from above:"}
{"Structure (SMILES)": "O=C(NO)c1ccc(CN2CCCCc3ccccc32)c(F)c1", "tested on": "OPRM1 (Homo sapiens, UniProt P35372)", "assay": "radioligand binding, PDSP radioligand binding", "setting": "10 µM", "endpoint": "inhibition", "value": "4.75%"}
